Measured values of several laboratories.
Each numbered part is a random draw from the data of one study; scales do not carry over between parts.

Block 1 — cell line: HEK-293T; observed: pseudovirus infection; organism: VSV pseudotyped with SARS-CoV-2 spike; concentration: 10 µM; time: 16 h; baseline: vehicle-treated
The GFP-positive cells of `COc1cc2nc(N3CCN(C(=O)C4COc5ccccc5O4)CC3)nc(N)c2cc1OC` (centres unmarked) is reported as 79%.
With `CCOC(=O)C1=C[C@@H](OC(CC)CC)[C@H](NC(C)=O)[C@@H](N)C1` the GFP-positive cells was 99.5%.
For `COC[C@@H](NC(C)=O)C(=O)NCc1ccccc1`, the GFP-positive cells was 80.3%.
`CN(C)/N=N/c1[nH]cnc1C(N)=O` has a GFP-positive cells of 81.7%.
For `Cc1ccsc1C(=CCCN1CCC[C@@H](C(=O)O)C1)c1sccc1C`, the GFP-positive cells was 82%.

Block 2 — technique: RNA Bind-n-Seq; form: RNA; matrix: in vitro; concentration: 365 nM; baseline: no-protein control; reading: higher = stronger binding
Target: RNA binding protein fox-1 homolog 2, RRM domain, GST-SBP tag (RBFOX2, Homo sapiens, UniProt O43251-10, residues 100-194)
Setting: natural RNA segment, single round, ends assumed
Shared flanks, not repeated: GGGAGUUCUACAGUCCGACGAUC … UGGAAUUCUCGGGUGCCAA
Target sequence (chain): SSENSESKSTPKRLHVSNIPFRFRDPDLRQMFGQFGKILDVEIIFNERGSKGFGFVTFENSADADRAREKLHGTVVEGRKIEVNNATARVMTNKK
Under “RBNS enrichment (R)”, `CAUCUACCAUAUAGCAAGUUUAGUAAGGGAAGGCAGCAUACGUCCCAGGGACAGUGGGUUUGGAUCUGUCUAGAACAGCGGUUUGUGGCUGUGGCCCAGCUCCGAGAGUG` is recorded as 2.62.
Under “RBNS enrichment (R)”, `UGAUCUUGCUGCUGUAGGAAGCUUGAUAGGGCAUUUGGCUCAAAUUUCAGAAGGCCUCGCUCCUGACCUAAUUUCUCAAAGCUCCGGUAGUUCUAGACCCCUCCAAUUUC` is recorded as 0.325.
For `CUCAGAUACCUCUGUGACCAAAUUUGUCUCCAACCACAUAGCUCAUUUCCUAUAAUGUUAUAUCAUAGGAAGCCCUCACAGAGACACUAACACAGCUAAAGAUCUUCUGA`, “RBNS enrichment (R)” read 0.326.
Under “RBNS enrichment (R)”, `AAGAAAUGGAGCCAAAUCUGCUCUAAGGUGAAUAGAGACUUAUUUUUCUUUAUUAAAGUAUUCUUGUAAGACAGUUUUCUGUGUCAAGUAUUUGUGAAAUCAGAGCUGAC` is recorded as 0.403.
Under “RBNS enrichment (R)”, `UUCCCUUUGGCUCCUGGAAGGCAGGAGGGUCCCCUGCCCUGCCCCAGUCCUGCCCCAGGGAGGCAGGGGGUGGGGGGCCUUCCUUUCCUCCUGGGCACCCCGUGUGCUGU` is recorded as 0.502.
`CUACCUAGUACGUCAUGUUGUACUAGGUACAUGAUGCUGGUCAGCCAUCCUUAAUCCAAAAUUUUGAGUCAAGUCUUAUAAGUGGAAAAUUCCAGUGAACAUUUAUUUUG` — result for “RBNS enrichment (R)”: 0.577.
`GAAGCACAUAGUCAGCGGCUGGGGUUGAAGAGUGAGUGUCACCAUGCCUUUUAGUGGAGACCUGCAGGCAAGCCUUUGGCCCACUGAUCACUGCCUUUCCCCCUCCACCG` — result for “RBNS enrichment (R)”: 0.226.
Under “RBNS enrichment (R)”, `GUGAUAGACAGGGACCCCUUCUACUGAACCUUUGAGGAAAGGAGGAAGGAAGAAAUGCGUUUAGAUCUUGGAUGCAGACCUUUCAAAGGGUUAAAUGUAACCAUAUGGAU` is recorded as 0.338.

Block 3 — mode: inhibitor; concentration: 20 µM
Target: Replicase polyprotein 1ab, nsp13 helicase (rep, Severe acute respiratory syndrome coronavirus 2, UniProt P0DTD1)
`N[C@@H](CC(=O)O)C(=O)O` has an inhibition of 3.16%.
For `O=C(c1c(F)ccc(NS(=O)(=O)N2CC[C@@H](F)C2)c1F)c1c[nH]c2ncc(-c3cnc(C4CC4)nc3)cc12`, the inhibition was 5.56%.
`CC(C)[C@@H]1CC[C@@H](C)C[C@H]1O` has an inhibition of -0.12%.
The inhibition of `N[C@@H](Cc1cc(I)c(Oc2cc(I)c(O)c(I)c2)c(I)c1)C(=O)O` is reported as 1.08%.
`CC(C)SC(=N)N` gave an inhibition of 1.29%.
With `CNCCC(Oc1ccccc1OC)c1ccccc1` (centres unmarked) the inhibition was 2.2%.
`N[C@@H](Cc1ccc(O)cc1)C(=O)NCC(=O)NCC(=O)O` gave an inhibition of -1.09%.
With `Nc1ncnc2c1ncn2[C@@H]1O[C@H](CO)[C@@H](O)[C@@H]1O` the inhibition was 3.74%.
`CC(=O)NCCCCCC(=O)O` gave an inhibition of -0.42%.
`Cn1nnnc1SCC1=C(C(=O)O)N2C(=O)[C@@H](NC(=O)[C@H](O)c3ccccc3)[C@H]2SC1` has an inhibition of 5%.
`Ic1cc(-c2ccccc2)ncn1` gave an inhibition of 6.34%.
`N[C@@H](Cc1c[nH]c2ccc(O)cc12)C(=O)O` has an inhibition of 8.71%.
For `Nc1c(S(=O)(=O)O)cc(Nc2cccc3ccccc23)c2c1C(=O)c1ccccc1C2=O`, the inhibition was 43.2%.
`Cn1cc(C2=C(c3cn(CCCSC(=N)N)c4ccccc34)C(=O)NC2=O)c2ccccc21` gave an inhibition of 57.9%.
For `COc1cc(NC(=O)c2ccccn2)ccc1Cl`, the inhibition was -0.1%.
With `O=Cc1ccc(CO)o1` the inhibition was -2.16%.
`CC(C)C(=O)OC[C@@]1(N=[N+]=[N-])O[C@@H](n2ccc(N)nc2=O)[C@H](OC(=O)C(C)C)[C@@H]1OC(=O)C(C)C` gave an inhibition of 6.9%.

Block 4 — observed: enzyme activity; mode: inhibitor; concentration: 20 µM; setting: hit confirmation, no DTT
Target: Replicase polyprotein 1ab, main protease (rep, Severe acute respiratory syndrome coronavirus 2, UniProt P0DTD1)
`COc1cc(N(C)C)cc(CN(C)CCc2ccc([N+](=O)[O-])cc2)c1O` has an inhibition of 104%.
The inhibition of `[NH-]c1c[n+](N2CCOCC2)no1` is reported as 60.4%.
`CN(CCCN1c2ccccc2CCc2ccccc21)CC(=O)c1ccc(Cl)cc1` has an inhibition of 68.1%.
With `CN1C(=O)C(N2CCCCC2)S/C1=C\C(=O)O` (centres unmarked) the inhibition was 72.9%.
`CC(Cc1ccc(O)c(O)c1)C(C)Cc1ccc(O)c(O)c1` (centres unmarked) has an inhibition of 101%.

For quick reference, copied from above (block 3):
`Cn1nnnc1SCC1=C(C(=O)O)N2C(=O)[C@@H](NC(=O)[C@H](O)c3ccccc3)[C@H]2SC1` has an inhibition of 5%.
`N[C@@H](Cc1c[nH]c2ccc(O)cc12)C(=O)O` has an inhibition of 8.71%.
`Ic1cc(-c2ccccc2)ncn1` gave an inhibition of 6.34%.
